Experimental data gathered from unrelated publications.
Parts stem from different laboratories: compare values within a part only. Substitutions count along the parent as printed.

Set 1 — method: RNA Bind-n-Seq; form: RNA; matrix: in vitro; tested at: 200 nM; setting: whole 134-nt RNA, ends assumed; with: 150 mM LiCl; reference: input library; direction: higher = stronger binding; all molecules: 7-deaza-guanosine replaces G
Target: Ras GTPase-activating protein-binding protein 1, full length (G3BP1, Homo sapiens, UniProt Q13283)
Chain of UniProt Q13283 (whole entry, looked up): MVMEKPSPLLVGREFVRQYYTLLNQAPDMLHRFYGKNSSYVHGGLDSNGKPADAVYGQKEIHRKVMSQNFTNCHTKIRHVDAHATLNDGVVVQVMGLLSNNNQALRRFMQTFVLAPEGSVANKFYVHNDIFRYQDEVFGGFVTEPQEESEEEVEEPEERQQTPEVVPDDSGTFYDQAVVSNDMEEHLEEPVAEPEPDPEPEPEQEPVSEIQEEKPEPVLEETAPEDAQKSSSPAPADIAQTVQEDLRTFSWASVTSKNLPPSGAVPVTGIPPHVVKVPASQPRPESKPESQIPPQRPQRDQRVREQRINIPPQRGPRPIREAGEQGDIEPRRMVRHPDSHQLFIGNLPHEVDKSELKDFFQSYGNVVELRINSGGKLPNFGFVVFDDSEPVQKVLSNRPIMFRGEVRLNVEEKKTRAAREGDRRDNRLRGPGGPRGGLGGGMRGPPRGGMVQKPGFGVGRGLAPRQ
Constant ends, left off below: GGGAGUUCUACAGUCCGACGAUC … UGGAAUUCUCGGGUGUCAAGG
| Oligonucleotide | log2 enrichment |
| --- | --- |
| GUCCUGUGCUACACAUCGUAUGUACCGAAUCGGGGUGGGGUUUGGGGAAAAAAAGGGGAAAGUAUUAUGUUACGCCGUUCGGAUCUGCAC | -0.697 |
| UGGGAGGUGGAUUUUGUUUAUUUUUUUAGCUCAUUUCCAGGGGUGGGAAUUUUUUUUUAAUAAGUGUCAUGAAUAAAGUUGUUUUUGAAA | -0.305 |
| CCUGUGCUACACAUCGUAUGUACCGAAUCAAACCCCCCCAAACCCCCAAAUUUUUUUAAAAAAGUAUUAUGUUACGCCGUUCGGAUCUGC | 0.531 |
| CUGUGCUACACAUCGUAUGUACCGAAUCGGGGAAAAAGGGGUUUUUGGGGUUUUUUUGGGGAAAGUAUUAUGUUACGCCGUUCGGAUCUG | -0.713 |
| AAGUCCUGUGCUACACAUCGUAUGUACCGAAUCGGGGUUUGGGGAAAGGGGAGGGGAAAGUAUUAUGUUACGCCGUUCGGAUCUGCACUU | 0.653 |
| ACCAUGCAGGUGGGCAUCUUUGGGAAGUGGGGCAAGGGGGGGAUAGGGAGGGGGGUAACACUUUGGGAACAGGUGGUCCCAGGUCGGUUC | 0.266 |
| UGGGAGGUGGAUUUUGUUUAUUUUUUUAGCUCAUUUCCAGGGGUGGGAAUUUUUUUUUAAUAUGUGUCAUAAAUAAAGUUGUUUUUGAAA | -0.0155 |
| CUGUGCUACACAUCGUAUGUACCGAAUCGGGGUUUUUUGGGUUUUUUGGGGUUUUUUGGGGAAAGUAUUAUGUUACGCCGUUCGGAUCUG | 1.36 |
| UCAAGUCCUGUGCUACACAUCGUAUGUACCGAAUCGGGAAGGGGAAGGGAAGGGAAAGUAUUAUGUUACGCCGUUCGGAUCUGCACUUCC | -0.396 |
| GCAGGAAGUAAAAACAAAUGGAAAUGCUUCGGAUAGUGGCAGGAGUGGGGGUUGCUAAGGAAAGGGUGGGAUGGGAGUGGGUAAAGAGUU | 0.182 |
| UGCUGAAGCUCACACCCGUGGACCACCCAGACUGCCUGCCGCUACAGGAUGCCCUCCGCAUCUCCCAGGACUUCUUUCCGGCAUCAGUGU | -0.843 |

Set 2 — method: aptamer microarray, sandwich; form: DNA with 2'F-ANA; matrix: in vitro; tested at: 200 nM; with: Cy3 exosite-II aptamer, 400 nM; direction: higher = stronger binding; oligonucleotide: GGTTGGTGTGGTTGG
Target: Prothrombin, mature alpha-thrombin (F2, Homo sapiens, UniProt P00734)
Setting: whole 15-mer aptamer, many near background
| Modification | mean fluorescence intensity [a.u.] |
| --- | --- |
| 2'F-ANA at 3 4 5 9 11 12 15 | 146 |
| 2'F-ANA at 1 3 4 5 6 8 10 12 | 56 |
| 2'F-ANA at 2 3 5 6 8 9 10 12 14 15 | 50.8 |
| 2'F-ANA at 6 8 11 12 | 772 |
| 2'F-ANA at 3 9 12 14 | 597 |
| 2'F-ANA at 1 2 4 5 8 9 11 12 13 14 | 291 |
| 2'F-ANA at 7 8 9 10 14 | 139 |
| 2'F-ANA at 2 4 5 6 7 8 9 10 12 13 14 15 | 50.4 |
| 2'F-ANA at 1 5 11 13 14 | 42.7 |
| 2'F-ANA at 1 9 10 14 | 48.1 |
| 2'F-ANA at 1 2 3 4 5 7 8 9 11 13 14 15 | 49.2 |
| 2'F-ANA at 7 12 14 15 | 284 |
| 2'F-ANA at 1 3 4 5 8 10 12 13 15 | 92.6 |
| 2'F-ANA at 1 5 6 7 9 15 | 59.1 |
| 2'F-ANA at 1 2 3 9 10 11 12 13 14 | 52.2 |
| 2'F-ANA at 1 2 7 9 11 13 | 107 |
| 2'F-ANA at 1 4 6 9 11 13 14 15 | 49.7 |
| 2'F-ANA at 1 2 4 7 8 10 12 14 15 | 48.8 |
| 2'F-ANA at 3 5 11 13 | 107 |
| 2'F-ANA at 1 3 4 6 7 10 12 13 14 15 | 48.3 |
| 2'F-ANA at 1 3 9 11 12 15 | 366 |
| 2'F-ANA at 2 3 5 6 7 8 9 12 15 | 207 |
| 2'F-ANA at 1 2 5 6 7 9 10 11 14 | 59.7 |

Set 3 — method: DHFR PCA, deep sequencing; matrix: yeast; with: (+)-ABA 1.4 µM; reference: wild-type fitted maximum; direction: higher = stronger binding
Target: ABI1, truncated, D143A, DHFR fusion (Arabidopsis thaliana)
Setting: methotrexate growth selection, single substitutions
Starting sequence: PYL1, truncated, DHFR fusion (Arabidopsis thaliana); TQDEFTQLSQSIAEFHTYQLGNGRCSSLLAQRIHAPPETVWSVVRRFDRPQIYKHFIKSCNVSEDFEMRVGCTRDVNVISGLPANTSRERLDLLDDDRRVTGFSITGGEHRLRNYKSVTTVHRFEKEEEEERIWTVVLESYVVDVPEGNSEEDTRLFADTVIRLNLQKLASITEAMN; partner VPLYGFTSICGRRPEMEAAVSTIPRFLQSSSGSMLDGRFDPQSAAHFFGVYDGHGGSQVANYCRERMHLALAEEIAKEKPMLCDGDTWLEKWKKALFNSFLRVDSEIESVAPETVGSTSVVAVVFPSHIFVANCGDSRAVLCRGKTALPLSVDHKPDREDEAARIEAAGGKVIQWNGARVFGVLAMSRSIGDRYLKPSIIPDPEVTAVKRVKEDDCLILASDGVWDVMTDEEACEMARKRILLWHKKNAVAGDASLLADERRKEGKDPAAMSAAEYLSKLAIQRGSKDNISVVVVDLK
| Substitution | relative binding score [%] |
| --- | --- |
| R98A | 28.4 |
| N77E | 78.7 |
| L28M | 58.2 |
| S117W | -2.78 |
| S171T | 63.5 |
| I172A | -3.81 |
| K116N | 1.12 |
| R32Y | 34.7 |
| G107K | -3.89 |
| S150T | 75 |
| E67Q | 49.8 |
| P83C | 4.1 |

Set 4 — method: protein-binding microarray; form: double-stranded DNA, one strand shown; matrix: in vitro; tested at: 250 nM; setting: 60-bp whole probe; with: salmon DNA 0.4 mg/ml; reference: random background probes; direction: higher = stronger binding; constant ends, left off below: GCCTAGCAC … GTCTTGATTCGCTTGACGCTGCTG
Target: Interferon regulatory factor 7, full length, phosphomimetic (IRF7, Homo sapiens, UniProt Q92985, residues 1-503, S101K/S471D/S472D/S475D/S476D/S477D/S483D/S484D/S487D)
Construct (chain): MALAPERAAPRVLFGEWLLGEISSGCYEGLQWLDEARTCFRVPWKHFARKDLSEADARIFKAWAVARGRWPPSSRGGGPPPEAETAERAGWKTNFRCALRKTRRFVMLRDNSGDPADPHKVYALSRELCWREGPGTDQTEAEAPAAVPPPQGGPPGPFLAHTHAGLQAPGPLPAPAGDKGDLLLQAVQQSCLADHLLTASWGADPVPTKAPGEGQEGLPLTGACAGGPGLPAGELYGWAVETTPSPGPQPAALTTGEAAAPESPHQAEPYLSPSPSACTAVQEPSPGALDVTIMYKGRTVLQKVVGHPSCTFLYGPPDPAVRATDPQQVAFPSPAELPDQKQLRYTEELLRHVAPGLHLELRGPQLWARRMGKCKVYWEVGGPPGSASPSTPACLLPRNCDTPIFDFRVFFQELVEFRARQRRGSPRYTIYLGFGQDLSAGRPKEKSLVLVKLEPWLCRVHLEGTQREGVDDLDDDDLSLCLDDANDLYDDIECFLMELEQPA
| Oligonucleotide | log fluorescence [z-score] |
| --- | --- |
| TTAGGACTAGGTCTCGGTTAGTGCTAG | 1.73 |
| GACGGACTGGGATTTCGGGACGTGCTA | -0.603 |
| TCATGTTTCTACTGTCTGACTGTGCTA | 1.07 |
| TTAGATATCAGGACTGGATTAGTGCTA | 0.00983 |
| ATGTGTTTACAGATGTTTTTGTGCTAG | 0.215 |
| TTAGGTTTCGGTTCCGCTTAGTGCTAG | 12.4 |
| TCATGTACATCTCTCTTACTGTGCTAG | 0.176 |
| GCCGAACTGGGGTTTCGAGACGTGCTA | 1.96 |
| GAAGGTATCGGGTTTCGGGACGTGCTA | 3.3 |
| TTAGGTTTCGGGACTTGGTTAGTGCTA | 3.59 |
| CAGGAAATCAACTTTTTTTAAGTGCTA | -0.256 |
| GACGAACTAGGGTTTCGAGACGTGCTA | 2.1 |
| GTCTGTTTGGGTCTTGTCTGGTGCTAG | 0.188 |
| TTAGGTATCGGTTTGGGTTAGTGCTAG | 5.55 |
| TCATACTTGTGTCTAGAACTGTGCTAG | 0.184 |
| GACCGACTGGACTTTCGGGACGTGCTA | -0.00451 |
| GATGAACTGGGGTATCGAGACGTGCTA | -0.219 |
| TGCTTTCCAATTCTCTTTTCGTGCTAG | 3.75 |
| GACGGTATCGGTTTCGTGACGTGCTAG | 5.78 |
| GGCGGACTGGGTTTCGGGACGTGCTAG | 1.57 |
| TTAAGTTCCCTTTTCCTTTAGTGCTAG | 3.94 |
| GACGGACTGGGACTGGGGATGTGCTAG | -0.403 |
| TATTTTTTTGTAATCGAAATGTGCTAG | 1.07 |

Set 5 — target: CCNA2, cyclin fold, Cln2 fusion (human); method: yeast growth competition, sequencing; matrix: yeast; setting: strong parent motif; reference: not given; direction: higher = stronger binding
Starting sequence: RB1 docking peptide (human); PKPLKKLRFDIEG
| Substitution | normalised enrichment score |
| --- | --- |
| PKPLKKLRFGIEG [D10G] | 3.77 |
| PKPLKKLRLDIEG [F9L] | 0.204 |
| PKPKKKLRFDIEG [L4K] | 3.01 |
| PKFLKKLRFDIEG [P3F] | 1.19 |
| PKPLKKLRFDIET [G13T] | 0.432 |
| PKPLKKLRFDIQG [E12Q] | 1.27 |
| PKPLKKLRFDIEF [G13F] | 0.725 |
| PKPLKKLRFDITG [E12T] | 1.63 |
| PSPLKKLRFDIEG [K2S] | 1.05 |
| PKPLKKLRADIEG [F9A] | 1.05 |
| AKPLKKLRFDIEG [P1A] | 0.936 |
| PKDLKKLRFDIEG [P3D] | 0.72 |
| PKLLKKLRFDIEG [P3L] | 1.53 |
| YKPLKKLRFDIEG [P1Y] | 1 |
| PKPIKKLRFDIEG [L4I] | 2.03 |
| PKPLKKLRFDIEN [G13N] | 0.346 |
| PKPLFKLRFDIEG [K5F] | -0.257 |
| PKPLKKLRFDIEK [G13K] | 1.48 |
| PKPLKFLRFDIEG [K6F] | 1.15 |
| PKPLKKLRFPIEG [D10P] | 1.19 |
| PKPLKKLTFDIEG [R8T] | 1.57 |
| PDPLKKLRFDIEG [K2D] | 0.0455 |
| PKPLKKLRFDIEM [G13M] | 1.13 |
| PGPLKKLRFDIEG [K2G] | 0.493 |
| PKCLKKLRFDIEG [P3C] | 5.41 |
